Measurements gathered from unrelated publications.
Protocols differ between the studies behind these lines. Several values in a cell are separate wells, animals, samples, runs or records. Numbers after ± are the reported error.

Structure (SMILES)	target or system	assay	test system	conditions	scale	quantity	value
CCn1cc(-c2cc(Cn3ccoc3=N)cc3c2CCN([C@@H](C)c2cc(OC)ccn2)C3=O)c(C(F)(F)F)n1	SKMEL31	cell growth	–	120 h	–	EC50	> 30000 nM
Clc1ccc(C2(c3ccc(-c4cn[nH]c4)cc3)CCNCC2)cc1	SK-OV-3	ATP	3D gellan gum culture	0.1 µM, 4 days	reference: untreated	relative cell number	71.9%
COc1ccc(C[C@@H]2c3cc(Oc4cc(C[C@@H]5c6cc(O)c(OC)cc6CCN5C)ccc4O)c(OC)cc3CCN2C)cc1	3T3-L1	adipocyte lipid accumulation, Nile Red staining	–	2.5 µM	–	inhibition	17 ± 1%
CC(C)C[C@@H](C=O)NC(=O)[C@H](CC(C)C)NC(=O)[C@H](CC(C)C)NC(=O)OCc1ccccc1	HEK293	item: CD4 signal peptide-FLuc reporter	–	concentration not given, 3 h, time-course chase, unit not given, together with: cycloheximide	reference: untreated	FLuc activity	1.14
CCN(CC)CCNC(=O)c1c(C)[nH]c(/C=C2\C(=O)Nc3ccc(F)cc32)c1C	iCell Cardiomyocytes (hiPSC-derived)	xCELLigence Cardio impedance	–	concentration not given, 2 h	reference: control	beat rate	74.5%
Nc1nc2c(ncn2[C@@H]2O[C@@H]3COP(=O)(O)O[C@H]3[C@H]2O)c(=O)[nH]1	–	binding, equilibrium dialysis LC-MS	–	5 µM, thermostabilized A2AR-BRIL construct	reference: no-protein control, direction not given	z-scored log2 fold change	0.777
C=CC(=O)N1CCC([C@@H]2CCNc3c(C(N)=O)c(-c4ccc(Oc5ccccc5)cc4)nn32)CC1	Ramos	calcium flux, FLIPR	–	1 h preincubation	–	maximum inhibition	95.8%
COc1ccc2c(N(C)c3ccc(/C(C)=N/OCCN)cc3)c3c(Cl)coc3nc2c1	LNCaP C-81	flow cytometry	–	1 µM, 72 h	–	G2/M cells increase	3 fold
Cc1cc(Nc2ncc(Cl)c(Nc3ccccc3S(=O)(=O)C(C)C)n2)c(OC(C)C)cc1C1CCNCC1	NB1 (ALK amplification, exon 2-3 deletion)	cell viability	–	–	–	Emax	76.4%
CNC(=O)c1cc(Oc2ccc(NC(=O)Nc3ccc(Cl)c(C(F)(F)F)c3)cc2)ccn1	iCell Cardiomyocytes (hiPSC-derived)	CellTiter-Glo	–	concentration not given, 24 h	reference: control	ATP level	92.5%
CC/C(=C(\c1ccccc1)c1ccc(OCCN(C)C)cc1)c1ccccc1	MCF7/luciferase, wild type	cell proliferation	–	–	–	maximum inhibition	79.4%
CCCCCCNC(=O)n1cc(F)c(=O)[nH]c1=O	SW-403	LC-MS, item: Cer(d18:1/16:0)	–	0.3 µM	–	ceramide level	27.5 ± 1.9 pmol/mg protein
C[C@@H](Oc1cc(-c2cnn(C3CCNCC3)c2)cnc1N)c1c(Cl)ccc(F)c1Cl	iCell Cardiomyocytes (hiPSC-derived)	xCELLigence Cardio impedance	–	concentration not given, 2 h	reference: control	beat rate	56.9%
CSc1cc(Oc2ccnc3[nH]c(=O)cnc23)ccc1NC(=O)Nc1cc(C(C)(C)C)nn1-c1ccccc1	patient-derived cells	RPPA, item: phosphorylated Rb	–	1 µM, 4 h, mean of three patients	reference: DMSO	phospho ratio	0.76
COc1ccc2ncnc(Cc3ccc(OC)c(OC)c3)c2c1	A549	mitochondrial oxygen consumption, Seahorse XF96	–	10 µM	–	inhibition	12%
C=CC(=O)N1CCCN(C(=O)c2cc(Sc3cnc(NC(=O)C4CC4)s3)c(C)cc2OC)C[C@H]1C	H9	Western blot	–	concentration not given, 30 s, together with: anti-CD3	–	PLCγ1 phosphorylation	inhibited
C=CC(=O)N1[C@@H](c2ccc3c(c2)OCO3)c2[nH]c3ccccc3c2C[C@H]1C(=O)NC	rat DRG neurons	–	–	3.333 µM, 48 h, together with: vincristine 40 nM	–	neuron degeneration	50.2% and 52.7%
C=CCn1c(=O)c2cnc(Nc3ccc(N4CCN(C)CC4)cc3)nc2n1-c1ccc2c(n1)[C@@](O)(CC)CC2	MDA-MB-231	flow cytometry	–	1 µM, 24 h	–	γH2AX-positive cells	18.1%
COc1cc(-c2ccccc2)ncc1C(=O)Nc1ccc2c(=O)[nH]c(-c3ccc(C(C)(C)O)cc3)nc2c1	Apc Q1405X mutant organoids	organoid area, live-cell imaging	mouse small intestinal organoids	144 h, Tnks1 genotype Tnks1+/-	–	EC50	334 nM
CCc1cnc(N2CCC(c3nc(COc4ccc(-n5cnnn5)cc4)cs3)CC2)nc1	HEK293T	RNA-seq, item: SERPINH1 mRNA	–	10 µM, 6 h	reference: vehicle	log2 fold change	-0.176
Nc1cccc2c1C(=O)N(C1CCC(=O)NC1=O)C2=O (stereo not shown)	MM1.S	XTT	–	2 µM	reference: untreated	viability	22%
C=CC(=O)N1CCC[C@@H](n2nc(-c3ccc(Oc4ccccc4)cc3)c3c(N)ncnc32)C1	Ramos	calcium flux, FLIPR	–	4 h preincubation	–	maximum inhibition	82.8%
CCCCCCCC(=O)SCCNC(=O)CCNC(=O)[C@H](O)C(C)(C)COP(=O)(O)OP(=O)(O)OC[C@H]1O[C@@H](n2cnc3c(N)ncnc32)[C@H](O)[C@@H]1OP(=O)(O)O	–	binding, equilibrium dialysis LC-MS	–	5 µM, thermostabilized A2AR-BRIL construct	reference: no-protein control, direction not given	z-scored log2 fold change	1.11
Cc1cc(Nc2ncc(Cl)c(Nc3ccccc3S(=O)(=O)C(C)C)n2)c(OC(C)C)cc1C1CCNCC1	CLB-BAR	phosphoproteomics LC-MS/MS, item: IWS1 phosphorylation	–	200 nM, 60 min	reference: untreated	log2 fold change	-3.13
C[C@@H](Oc1cc(-n2cnc3ccc(CN4CCN(C)CC4)cc32)sc1C(N)=O)c1ccccc1C(F)(F)F	iCell Cardiomyocytes (hiPSC-derived)	xCELLigence Cardio impedance	–	concentration not given, 2 h	reference: control	beat amplitude	104%
CCOCc1sc(NCc2ncccn2)nc1-c1ccccn1	THLE-2	–	–	–	reference: CC50 THLE-2 over Huh-7	selectivity ratio	< 2
CN1CCN(c2ccc3nc(-c4c(N)c5c(F)cccc5[nH]c4=O)[nH]c3c2)CC1	iCell Cardiomyocytes (hiPSC-derived)	CellTiter-Glo	–	concentration not given, 24 h	reference: control	ATP level	92.3%
C=Cc1c2[n-]c(c1C)/C=c1\[n-]/c(c(C)c1C=C)=C\c1[n-]c(c(CCC(=O)O)c1C)/C=c1\[n-]c(c(C)c1CCC(=O)O)=C2.[Sn+4]	SH-SY5Y	RNA-seq, item: RFTN1 mRNA	–	5 µM, 5 h	reference: untreated cells	fold change	1.53

Structure (SMILES)	target or system	assay	test system	conditions	scale	quantity	value
C=CC(=O)N1CCC[C@@H](c2ccc(C(N)=O)c3[nH]ccc23)C1	TMD8 RAC2 knockout	calcium flux, FLIPR	–	concentration not given, 1 h preincubation	–	inhibition	74.1%
CCn1cc(-c2cc(Cn3ccnc3)cc3c2CCN([C@H](c2cc(OC)ccn2)C2CC2)C3=O)c(C(F)(F)F)n1	HCC1195	cell growth	–	120 h	–	EC50	> 30000 nM
CC(C)NCC(O)c1ccc(O)c(O)c1 (stereo not shown)	mouse ventricular cardiomyocytes	–	–	dose not given, 0.251 s	–	sarcomere length	1.8 µm
COc1ccc2c(Cc3ccc(OC)c(OC)c3)nccc2c1	A549	mitochondrial oxygen consumption, Seahorse XF96	–	10 µM	–	inhibition	81%
O=C(O)c1ccc(-c2c[nH]c3ncc(-c4ccccc4)cc23)cc1C1CCCC1	SK-OV-3	ATP	–	0.1 µM, 4 days, 3D U-bottom low-attachment	reference: untreated	relative cell number	104%
CSc1nc(-c2ccc(Cl)cc2)c2c(NC(=O)c3ccccc3)nnc-2[nH]1	NCI-H226	SRB	–	10 µM, NCI60 single-dose screen	reference: untreated	cell growth	100%
COc1ccc(-n2nc(C(C)=O)s/c2=N\N=C(/C)c2ccc(NC(=O)c3ccc(Cl)cc3)cc2)cc1	MCF7	–	–	10 µM	–	toxicity	96.5%
COc1ccc2c(c1)NC(=O)CN2c1nc(C)nc2ccccc12	A549	flow cytometry	–	0.003 µM, 24 h	–	cells in G2/M phase	83.8%
CCCCN1CCN(c2ccc3[nH]c(-c4ccc5[nH]c(-c6ccc(OCC)cc6)nc5c4)nc3c2)CC1	BT-549	SRB	–	10 µM, 48 h	–	growth percent	83.9%
COc1ccc(NC(=S)N/N=C/c2ccc(N3CCC(O)CC3)cc2)cc1	BEAS-2B and A549	MTT	–	–	reference: IC50 BEAS-2B over IC50 A549	selectivity ratio	3.4
CCCCN1C[C@H](O)[C@@H](O)[C@@H](O)[C@H]1CO	sample BC patient fibroblasts	Gb3 level lowering, LC-MS/MS, item: Gb3 d18:1/24:1	–	216 h	–	IC50	23.4 µM
COc1cnc2cccc(N3CCc4c(cc(Cn5ccnc5C)cc4-c4cn(C)nc4C(F)(F)F)C3=O)c2c1	Farage	cell growth	–	120 h	–	EC50	3110 nM
CC/C(=N\NC(=O)NCc1cccc(O)c1)c1ccc(O)c(C)c1O	SK-OV-3	gene expression, microarray, item: MMP10	–	10 µM, 24 h	reference: DMSO	log ratio	-4.47
C[C@H]1CN(C2COC2)CCN1c1ccc(Nc2cc(-c3ccnc(N4CCn5c(cc6c5CC(C)(C)C6)C4=O)c3CO)cn(C)c2=O)nc1	Ramos	calcium flux, FLIPR	–	4 h preincubation	–	maximum inhibition	86.2%
CC1(C)COc2ccc(F)cc2CN2c3nc4c(cnn4cc3OC[C@H]2C(F)F)C(=O)N1	NB1 (ALK amplification, exon 2-3 deletion)	cell viability	–	–	–	Emax	82.7%
CCn1c(-c2nonc2N)nc2cncc(CNC3CCNCC3)c21	SK-OV-3	ATP	2D monolayer culture	1 µM, 4 days	reference: untreated	relative cell number	98.5%
Cn1cncc1C1=CN(c2ncnc3[nH]cnc23)CCS1	NCI/ADR-RES	–	–	ovarian cancer cell line	–	TGI	> 200 µM
O=C(/C=C/c1cccc(S(=O)(=O)Nc2ccccc2)c1)NO	differentiated THP-1	–	–	25 µg/mL	reference: untreated	TNF-α mRNA level	decreased
Cn1cc(-c2ccc(-c3cncc(Cl)c3N3CCC4(CCNC4=O)CC3)cc2)cn1	COLO 205	gene expression, microarray, item: DLGAP5 mRNA	–	concentration not given, 2 h	reference: untreated cells	log2 fold change	-1.85
O=C(/C=C/C=C/C=C/C1CCCCC1)NC1=C[C@@](O)(/C=C/C=C/C=C/C(=O)NC2=C(O)CCC2=O)[C@@H]2O[C@@H]2C1=O	NCI-H1703	cell growth, CellTiter-Glo	–	78 h	–	GI50	16.9 µM
Cn1cc(Nc2nccc(-c3ccc4c(c3)CN(C3COC3)CC[C@H]4NC(=O)c3cn(C(C)(C)C)nn3)n2)cn1	mouse splenic B cells	item: Endothelin-1 signalling	–	30 mg/kg, IgD-activated in vivo	reference: vehicle, direction not given	pathway activation z-score	2.86
Cc1[nH]c(/C=C2\C(=O)Nc3ccc(F)cc32)c(C)c1C(=O)NC[C@H](O)CN1CCOCC1	iCell Cardiomyocytes (hiPSC-derived)	xCELLigence Cardio impedance	–	concentration not given, 2 h	reference: control	beat rate	90.8%
[Cl-].[Cl-].[Os+2].c1cnc2c(c1)ccc1cccnc12.c1cnc2c(c1)ccc1cccnc12.c1cnc2c(c1)ccc1cccnc12	SK-MEL-28	cell growth, SRB	–	dark, 1% O2 hypoxia	–	GI50	127 µM
O=C(NC1CCNCC1)c1[nH]ncc1NC(=O)c1c(Cl)cccc1Cl	iCell Cardiomyocytes (hiPSC-derived)	xCELLigence Cardio impedance	–	concentration not given, 2 h	reference: control	beat amplitude	103%
C[C@]12CCCN1CC1=NNC(=O)c3cc(F)cc4[nH]c2c1c34	HCT-15 colorectal cancer cells	cell viability	–	concentration not given, together with: with temozolomide	–	EC50	1900 nM
Cc1nc(Nc2ncc(C(=O)Nc3c(C)cccc3Cl)s2)cc(N2CCN(CCO)CC2)n1	iCell Cardiomyocytes (hiPSC-derived)	CellTiter-Glo	–	concentration not given, 24 h	reference: control	ATP level	94.8%
CN1CCN(c2ccc3nc(-c4c(N)c5c(F)cccc5[nH]c4=O)[nH]c3c2)CC1	ARPE-19 HiBiT fibulin-3	HiBiT luminescence	–	5 µM	–	fibulin-3 level	-44%

A few entries again:
Structure (SMILES)	target or system	assay	test system	conditions	scale	quantity	value
C=CC(=O)N1CCCN(C(=O)c2cc(Sc3cnc(NC(=O)C4CC4)s3)c(C)cc2OC)C[C@H]1C	H9	Western blot	–	concentration not given, 30 s, together with: anti-CD3	–	PLCγ1 phosphorylation	inhibited
C=CC(=O)N1[C@@H](c2ccc3c(c2)OCO3)c2[nH]c3ccccc3c2C[C@H]1C(=O)NC	rat DRG neurons	–	–	3.333 µM, 48 h, together with: vincristine 40 nM	–	neuron degeneration	50.2% and 52.7%
C=CCn1c(=O)c2cnc(Nc3ccc(N4CCN(C)CC4)cc3)nc2n1-c1ccc2c(n1)[C@@](O)(CC)CC2	MDA-MB-231	flow cytometry	–	1 µM, 24 h	–	γH2AX-positive cells	18.1%
COc1cc(-c2ccccc2)ncc1C(=O)Nc1ccc2c(=O)[nH]c(-c3ccc(C(C)(C)O)cc3)nc2c1	Apc Q1405X mutant organoids	organoid area, live-cell imaging	mouse small intestinal organoids	144 h, Tnks1 genotype Tnks1+/-	–	EC50	334 nM
